Measured values from different studies.
Parts stem from different laboratories: compare values within a part only. “And” joins repeats or separate records; there may be more than shown.
Sequence of UniProt Q9BXA7 (whole entry, looked up): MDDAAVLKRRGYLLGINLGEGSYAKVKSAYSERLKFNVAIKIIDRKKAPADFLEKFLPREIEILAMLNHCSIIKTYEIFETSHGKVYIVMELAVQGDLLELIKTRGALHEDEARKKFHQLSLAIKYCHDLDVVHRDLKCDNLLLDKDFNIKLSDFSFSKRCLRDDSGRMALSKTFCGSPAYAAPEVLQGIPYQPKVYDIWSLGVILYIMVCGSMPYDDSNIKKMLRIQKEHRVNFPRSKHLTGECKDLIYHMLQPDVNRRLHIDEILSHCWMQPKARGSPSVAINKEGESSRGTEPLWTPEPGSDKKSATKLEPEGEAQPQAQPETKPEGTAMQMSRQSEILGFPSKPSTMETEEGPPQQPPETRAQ
Sequence of UniProt Q9UQM7 (whole entry, looked up): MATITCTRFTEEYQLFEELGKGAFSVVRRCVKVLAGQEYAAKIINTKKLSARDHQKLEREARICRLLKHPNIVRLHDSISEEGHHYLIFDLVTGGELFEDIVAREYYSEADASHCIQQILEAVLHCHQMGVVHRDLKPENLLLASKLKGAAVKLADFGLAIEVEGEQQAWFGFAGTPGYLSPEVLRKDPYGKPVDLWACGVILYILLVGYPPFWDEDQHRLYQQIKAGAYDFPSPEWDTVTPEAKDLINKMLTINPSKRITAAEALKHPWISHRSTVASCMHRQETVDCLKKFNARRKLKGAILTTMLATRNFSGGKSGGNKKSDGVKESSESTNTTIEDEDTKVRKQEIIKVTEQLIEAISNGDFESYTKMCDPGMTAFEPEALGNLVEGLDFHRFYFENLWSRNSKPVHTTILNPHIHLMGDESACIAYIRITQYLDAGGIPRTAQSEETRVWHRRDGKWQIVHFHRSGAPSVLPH
Sequence of UniProt P49137 (whole entry, looked up): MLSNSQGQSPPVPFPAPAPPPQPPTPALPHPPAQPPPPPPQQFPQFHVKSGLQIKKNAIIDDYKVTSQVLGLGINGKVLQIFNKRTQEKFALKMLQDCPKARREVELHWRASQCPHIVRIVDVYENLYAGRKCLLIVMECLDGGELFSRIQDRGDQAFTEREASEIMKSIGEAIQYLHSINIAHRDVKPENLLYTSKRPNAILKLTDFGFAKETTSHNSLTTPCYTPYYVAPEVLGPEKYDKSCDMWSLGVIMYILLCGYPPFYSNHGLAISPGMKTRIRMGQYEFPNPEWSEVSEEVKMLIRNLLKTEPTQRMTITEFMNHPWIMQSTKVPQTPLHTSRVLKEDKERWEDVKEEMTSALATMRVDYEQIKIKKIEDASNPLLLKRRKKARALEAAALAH
Sequence of UniProt Q9Y6E0 (whole entry, looked up): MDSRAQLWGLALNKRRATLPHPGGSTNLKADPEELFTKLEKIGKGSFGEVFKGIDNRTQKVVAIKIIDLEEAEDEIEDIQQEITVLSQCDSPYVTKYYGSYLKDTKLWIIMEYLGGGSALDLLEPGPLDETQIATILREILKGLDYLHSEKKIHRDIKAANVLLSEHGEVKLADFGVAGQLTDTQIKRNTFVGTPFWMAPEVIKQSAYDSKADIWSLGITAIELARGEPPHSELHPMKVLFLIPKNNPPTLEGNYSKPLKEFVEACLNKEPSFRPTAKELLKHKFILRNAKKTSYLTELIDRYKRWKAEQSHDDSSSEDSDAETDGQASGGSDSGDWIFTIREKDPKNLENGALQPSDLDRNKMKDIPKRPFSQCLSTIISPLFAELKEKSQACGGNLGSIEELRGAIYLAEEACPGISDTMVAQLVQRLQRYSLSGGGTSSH
Sequence of UniProt P53671 (whole entry, looked up): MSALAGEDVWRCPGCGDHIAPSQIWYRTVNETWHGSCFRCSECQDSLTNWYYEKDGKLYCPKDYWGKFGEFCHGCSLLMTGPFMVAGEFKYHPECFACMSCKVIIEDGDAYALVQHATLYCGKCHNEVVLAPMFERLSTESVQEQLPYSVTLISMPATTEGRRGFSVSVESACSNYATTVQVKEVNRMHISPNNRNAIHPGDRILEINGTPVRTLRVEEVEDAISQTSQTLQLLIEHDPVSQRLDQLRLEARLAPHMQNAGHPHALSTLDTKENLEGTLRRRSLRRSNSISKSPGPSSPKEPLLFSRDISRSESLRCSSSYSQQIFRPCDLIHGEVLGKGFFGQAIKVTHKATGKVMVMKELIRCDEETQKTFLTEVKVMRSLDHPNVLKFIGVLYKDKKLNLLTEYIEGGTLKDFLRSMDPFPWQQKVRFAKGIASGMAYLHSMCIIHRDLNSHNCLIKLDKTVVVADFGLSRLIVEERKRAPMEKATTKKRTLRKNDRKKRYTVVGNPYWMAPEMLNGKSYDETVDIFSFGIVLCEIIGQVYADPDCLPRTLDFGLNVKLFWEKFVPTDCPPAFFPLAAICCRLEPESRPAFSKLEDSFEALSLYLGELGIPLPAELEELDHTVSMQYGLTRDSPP
Sequence of UniProt Q9BX84 (whole entry, looked up): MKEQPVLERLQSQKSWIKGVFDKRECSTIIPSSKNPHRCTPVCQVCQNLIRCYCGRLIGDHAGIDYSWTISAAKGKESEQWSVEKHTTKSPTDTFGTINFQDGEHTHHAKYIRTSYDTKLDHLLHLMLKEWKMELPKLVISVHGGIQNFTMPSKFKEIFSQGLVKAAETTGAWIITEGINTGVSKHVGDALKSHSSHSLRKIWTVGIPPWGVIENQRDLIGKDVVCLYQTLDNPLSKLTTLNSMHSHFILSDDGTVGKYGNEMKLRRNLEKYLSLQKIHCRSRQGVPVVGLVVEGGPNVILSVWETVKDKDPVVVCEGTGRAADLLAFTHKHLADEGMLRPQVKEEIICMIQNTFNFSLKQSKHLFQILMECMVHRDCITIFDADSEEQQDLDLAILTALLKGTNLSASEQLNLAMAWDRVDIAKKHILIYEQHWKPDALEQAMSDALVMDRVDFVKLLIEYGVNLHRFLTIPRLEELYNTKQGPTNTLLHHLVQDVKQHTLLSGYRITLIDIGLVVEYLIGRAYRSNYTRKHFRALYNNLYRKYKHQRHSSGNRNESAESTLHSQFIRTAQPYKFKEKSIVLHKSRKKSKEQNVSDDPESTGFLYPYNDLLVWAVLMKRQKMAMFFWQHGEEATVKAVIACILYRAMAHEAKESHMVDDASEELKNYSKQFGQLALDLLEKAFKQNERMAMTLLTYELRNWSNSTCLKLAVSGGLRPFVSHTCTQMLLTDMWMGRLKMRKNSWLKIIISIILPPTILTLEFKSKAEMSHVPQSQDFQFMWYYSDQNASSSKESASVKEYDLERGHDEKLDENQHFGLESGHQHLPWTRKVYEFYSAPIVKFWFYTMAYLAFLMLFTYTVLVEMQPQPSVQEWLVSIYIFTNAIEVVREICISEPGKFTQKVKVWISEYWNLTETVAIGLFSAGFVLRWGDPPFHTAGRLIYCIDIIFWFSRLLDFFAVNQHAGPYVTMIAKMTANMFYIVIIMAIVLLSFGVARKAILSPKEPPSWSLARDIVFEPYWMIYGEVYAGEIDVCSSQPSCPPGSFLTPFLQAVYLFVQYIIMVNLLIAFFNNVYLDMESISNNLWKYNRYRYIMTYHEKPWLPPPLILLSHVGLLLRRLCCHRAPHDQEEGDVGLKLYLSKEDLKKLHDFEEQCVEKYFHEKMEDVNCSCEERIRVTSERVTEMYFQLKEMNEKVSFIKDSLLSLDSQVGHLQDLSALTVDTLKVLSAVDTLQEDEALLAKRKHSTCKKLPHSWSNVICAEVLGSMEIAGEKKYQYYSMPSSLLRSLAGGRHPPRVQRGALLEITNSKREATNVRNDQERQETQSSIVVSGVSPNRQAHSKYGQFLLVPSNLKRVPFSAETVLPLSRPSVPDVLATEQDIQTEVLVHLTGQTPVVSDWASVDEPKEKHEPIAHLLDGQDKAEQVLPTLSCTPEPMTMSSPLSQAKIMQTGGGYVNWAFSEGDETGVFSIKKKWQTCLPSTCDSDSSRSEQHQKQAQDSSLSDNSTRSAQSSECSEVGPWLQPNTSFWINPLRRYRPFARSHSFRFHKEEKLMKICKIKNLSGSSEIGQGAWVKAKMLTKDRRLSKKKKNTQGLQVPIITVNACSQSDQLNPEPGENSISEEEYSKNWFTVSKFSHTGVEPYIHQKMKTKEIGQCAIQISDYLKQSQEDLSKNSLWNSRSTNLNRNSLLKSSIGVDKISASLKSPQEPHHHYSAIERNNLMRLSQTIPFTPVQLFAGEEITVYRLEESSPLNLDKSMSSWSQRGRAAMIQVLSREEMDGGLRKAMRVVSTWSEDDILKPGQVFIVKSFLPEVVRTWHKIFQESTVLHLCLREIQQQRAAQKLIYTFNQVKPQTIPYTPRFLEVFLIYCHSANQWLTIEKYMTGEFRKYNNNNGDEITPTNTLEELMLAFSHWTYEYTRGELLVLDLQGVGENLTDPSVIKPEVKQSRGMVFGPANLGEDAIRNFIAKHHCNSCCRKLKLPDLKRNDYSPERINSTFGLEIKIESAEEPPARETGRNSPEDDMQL

Set 1
Species: human
Matrix: microsomes or S9
Tested at: 2 µM
Time: 0.5 h
| Compound | remaining compound |
| --- | --- |
| COc1cccc(N2CCN(c3ncnc4[nH]cnc34)CC2)c1 | 78.6% |
| O=S(=O)(Nc1ccc(Br)cc1)C1CCCCC1O (stereo not drawn) | 63% |
| Cc1nc2cc(NC(=O)c3cccc4cn[nH]c34)ccc2o1 | 29.3% |
| CC1CN(C2c3ccccc3-c3ccccc32)CC(C)(C)O1 (stereo not drawn) | 45.7% |
| COc1ccc2c(c1OC)C(=O)N1c3ccccc3C(=O)N(CC(=O)Nc3ccc4nc[nH]c4c3)C21 (stereo not drawn) | > 99% |
| Cc1cc(N2CCCCC2)nc(N2CCN(S(=O)(=O)c3ccc4cccc5c4c3CC5)CC2)n1 | 3.16% |
| CN(c1nccc2c(Br)csc12)C1CCN(C(=O)OC(C)(C)C)CC1 | 59.9% |
| CCOc1cc(=O)n2c(c1C(=O)Nc1cc(OC)c(Cl)cc1OC)CCCC2 | > 99% |

Set 2
Organism: Sarcocystis neurona
Observed: parasite activity
Tested at: 10 µM
Time: 96 h
| Structure (SMILES) | activity class |
| --- | --- |
| CC(=O)Nc1ccc(CC(=O)O)cc1 | inactive |
| CN(C)CCOC(C)(c1ccccc1)c1ccccn1 (stereo not drawn) | inactive |
| CC(=O)[C@@]1(O)CC[C@H]2[C@@H]3C[C@H](C)C4=CC(=O)C=C[C@]4(C)[C@@]3(F)[C@@H](O)C[C@@]21C | inactive |
| CC1(C)O[C@@H]2C[C@H]3[C@@H]4C[C@H](F)C5=CC(=O)C=C[C@]5(C)[C@H]4[C@@H](O)C[C@]3(C)[C@]2(C(=O)CO)O1 | inactive |
| O=C(NCCN1CCOCC1)c1ccc(Cl)cc1 | inactive |
| COC(=O)C1=C(C)NC(C)=C(C(=O)OCC(C)C)C1c1ccccc1[N+](=O)[O-] (stereo not drawn) | inactive |
| C[C@H]1C[C@H]2[C@@H]3CCC4=CC(=O)C=C[C@]4(C)[C@@]3(F)[C@@H](O)C[C@]2(C)[C@@]1(O)C(=O)CO | inactive |

Set 3
Structure (SMILES): CO[C@@H](C)c1c(Nc2ccc([C@@H](N(C)C(=O)C3CCS(=O)(=O)CC3)C(F)(F)F)cc2)cnc2cc(Cl)nn12
Method: competition with immobilised ligand
Tested at: 1 µM
| target | assay | remaining binding [%] |
| --- | --- | --- |
| Tyrosine-protein kinase Fer (FER, Homo sapiens, UniProt P16591) | cell-free assay | 89 |
| G protein-coupled receptor kinase 3 (GRK3, Homo sapiens, UniProt P35626) | cell-free assay | 91 |
| LIM domain kinase 2 (LIMK2, Homo sapiens, UniProt P53671) | cell-free assay | 87 |
| Calcium/calmodulin-dependent protein kinase type II subunit alpha (CAMK2A, Homo sapiens, UniProt Q9UQM7) | cell-free assay | 83 |
| MAP kinase-activated protein kinase 2 (MAPKAPK2, Homo sapiens, UniProt P49137) | cell-free assay | 100 |
| Transient receptor potential cation channel subfamily M member 6 (TRPM6, Homo sapiens, UniProt Q9BX84) | cell-free assay | 100 |
| Casein kinase I isoform alpha (CSNK1A1, Homo sapiens, UniProt P48729) | cell-free assay | 72 |
| Serine/threonine-protein kinase STK11 (STK11, Homo sapiens, UniProt Q15831) | cell-free assay | 78 |
| Mitotic checkpoint serine/threonine-protein kinase BUB1 (BUB1, Homo sapiens, UniProt O43683) | cell-free assay | 100 |
| Mitogen-activated protein kinase kinase kinase 11 (MAP3K11, Homo sapiens, UniProt Q16584) | cell-free assay | 85 |
| Mast/stem cell growth factor receptor Kit (KIT, Homo sapiens, UniProt P10721) | cell-free assay | 100 |
| Tyrosine-protein kinase ABL1, phosphorylated (ABL1, Homo sapiens, UniProt P00519, E255K) | binding | 75 |
| Receptor-type tyrosine-protein kinase FLT3 (FLT3, Homo sapiens, UniProt P36888, N841I) | cell-free assay | 57 |
| Receptor-type tyrosine-protein kinase FLT3 (FLT3, Homo sapiens, UniProt P36888, D835H) | cell-free assay | 63 |
| Serine/threonine-protein kinase 24 (STK24, Homo sapiens, UniProt Q9Y6E0) | cell-free assay | 89 |
| Testis-specific serine/threonine-protein kinase 1 (TSSK1B, Homo sapiens, UniProt Q9BXA7) | cell-free assay | 100 |
| Receptor-type tyrosine-protein kinase FLT3 (FLT3, Homo sapiens, UniProt P36888, R834Q) | cell-free assay | 100 |
| Dual specificity tyrosine-phosphorylation-regulated kinase 1B (DYRK1B, Homo sapiens, UniProt Q9Y463) | cell-free assay | 75 |
| LIM domain kinase 1 (LIMK1, Homo sapiens, UniProt P53667) | cell-free assay | 92 |

Set 4
Structure (SMILES): CC(C)C[C@@H]1NC(=O)[C@@H](N(C)C(=O)[C@H](CC2CCC2)NC(=O)[C@@H]2C[C@@H](F)CN2C(=O)C2(C(F)(F)F)CC(F)(F)C2)CCCCNC(=O)C2(CC2)NC(=O)[C@H](Cc2cc(Cl)ccc2Cl)N(C)C1=O
Cell line: NCI-H446
Method: cell counting
Time: 5 days
Baseline: DMSO
| setting | cell growth |
| --- | --- |
| 13.7 nM | 54.7% and 47.9% |
| 41.1 nM | 25.9% and 32.5% |
| 3.33 µM | 21% and 23% |
| 4.57 nM | 78.4% and 63.5% |

Further values, each from its own experiment
| Compound | assay | test system | setting | endpoint | value |
| --- | --- | --- | --- | --- | --- |
| COc1ccc(-c2c(Nc3ccccn3)[nH]c3c(C4=CCCCC4)c(-c4ccccc4)nn3c2=O)cc1 | LC-MS/MS | human, plasma | oral, 50 mg once daily | AUC(0-24) | 33000 ng·h/mL and 34900 ng·h/mL |
